{"data": "Earlier results that unrelated publications cite", "note": "Protocols differ between the studies behind these lines.", "chain of UniProt Q9H4B4 (whole entry, looked up)": "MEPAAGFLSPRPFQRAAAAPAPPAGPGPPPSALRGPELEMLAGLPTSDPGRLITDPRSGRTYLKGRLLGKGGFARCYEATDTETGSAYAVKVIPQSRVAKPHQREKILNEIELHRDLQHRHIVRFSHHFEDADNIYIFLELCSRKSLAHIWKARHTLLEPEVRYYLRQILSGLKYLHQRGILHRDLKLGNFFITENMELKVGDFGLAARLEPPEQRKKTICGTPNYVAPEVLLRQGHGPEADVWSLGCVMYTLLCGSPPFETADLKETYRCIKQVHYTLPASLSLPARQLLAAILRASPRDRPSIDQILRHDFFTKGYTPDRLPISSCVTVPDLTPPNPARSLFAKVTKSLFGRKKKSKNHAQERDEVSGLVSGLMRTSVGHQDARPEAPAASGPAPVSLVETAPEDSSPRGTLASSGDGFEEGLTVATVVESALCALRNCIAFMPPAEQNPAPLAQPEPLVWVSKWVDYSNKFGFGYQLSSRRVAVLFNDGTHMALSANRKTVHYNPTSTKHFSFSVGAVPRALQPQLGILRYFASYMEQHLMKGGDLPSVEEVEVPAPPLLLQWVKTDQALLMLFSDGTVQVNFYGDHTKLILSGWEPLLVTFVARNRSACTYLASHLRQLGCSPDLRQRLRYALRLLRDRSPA"}
{"SMILES": "FC(F)(F)c1ccc(Oc2ccc(-c3noc(-c4ccc5[nH]ccc5c4)n3)cc2)cc1", "target or system": "Lactobacillus gasseri", "strain": "HM-644", "quantity": "MIC", "result": "> 128 µg/mL"}
{"SMILES": "C[C@H]1COCCN1c1nc(-c2cnc(N)cc2C(F)F)nc(N2CCOCC2)n1", "target or system": "A 172", "quantity": "GI50", "result": "299 nM"}
{"SMILES": "CCc1c(Cl)c(O)c(Cl)c(O)c1C(=O)O[C@H]1[C@H](O)[C@H](OC)[C@H](OC/C2=C\\C=C\\C[C@H](O)/C(C)=C/[C@H](CC)[C@@H](O[C@@H]3OC(C)(C)[C@@H](OC(=O)C(C)C)[C@H](O)[C@@H]3O)/C(C)=C/C(C)=C/C[C@@H]([C@@H](C)O)OC2=O)O[C@@H]1C", "target or system": "Bacteroides sp.", "strain": "HM-709", "quantity": "MIC", "result": "> 32 µg/mL"}
{"SMILES": "CC1(C)S[C@@H]2[C@H](NC(=O)[C@H](N)c3ccccc3)C(=O)N2[C@H]1C(=O)O", "target or system": "Pseudomonas aeruginosa", "strain": "clinical isolate RKI-No_82/10", "quantity": "MIC", "result": "> 16 µg/mL"}
{"SMILES": "Oc1ccc(-c2nc(-c3ccc(OC4CCCC4)cc3)no2)cc1", "target or system": "Lactobacillus sp.", "strain": "HM-102", "quantity": "MIC", "result": "> 128 µg/mL"}
{"SMILES": "CCc1c(Cl)c(O)c(Cl)c(O)c1C(=O)O[C@H]1[C@H](O)[C@H](OC)[C@H](OC/C2=C\\C=C\\C[C@H](O)/C(C)=C/[C@H](CC)[C@@H](O[C@@H]3OC(C)(C)[C@@H](OC(=O)C(C)C)[C@H](O)[C@@H]3O)/C(C)=C/C(C)=C/C[C@@H]([C@@H](C)O)OC2=O)O[C@@H]1C", "target or system": "Corynebacterium sp.", "strain": "HM-784", "quantity": "MIC", "result": "< 0.06 µg/mL"}
{"SMILES": "COc1ccc(CCc2cc(OC)c(OC)c(OC)c2)cc1O", "target or system": "Staphylococcus aureus", "quantity": "MIC", "result": "512 µg/mL"}
{"SMILES": "Nc1cc(C(F)(F)F)c(-c2nc(N3CCOCC3)nc(N3CCOCC3)n2)cn1", "target or system": "PLK3 (Homo sapiens, UniProt Q9H4B4)", "effect on": "enzyme activity", "concentration": "10 µM", "relative to": "untreated", "quantity": "remaining activity", "result": "96%"}
{"SMILES": "Oc1ccc(-c2nc(-c3ccc(OC4CCCC4)cc3)no2)cc1", "target or system": "Pseudomonas aeruginosa", "strain": "ATCC 27853", "quantity": "MIC", "result": "> 128 µg/mL"}
{"SMILES": "CNC(C)C1CCC(N)C(OC2C(N)CC(N)C(OC3OCC(C)(O)C(NC)C3O)C2O)O1 (stereo not drawn)", "target or system": "Klebsiella pneumoniae", "strain": "clinical isolate RKI-No_461/16", "quantity": "MIC", "result": "≤ 0.5 µg/mL"}
{"SMILES": "CC1(C)S[C@@H]2[C@H](NC(=O)[C@H](N)c3ccccc3)C(=O)N2[C@H]1C(=O)O", "target or system": "Micrococcus flavus", "quantity": "MIC", "result": "0.031 to 4 µg/mL"}
{"SMILES": "CCC[C@@H]1C[C@@H](C(=O)N[C@@H]([C@H]2O[C@H](SC)[C@H](O)[C@@H](O)[C@H]2O)[C@@H](C)O)N(C)C1", "target or system": "Staphylococcus aureus", "quantity": "MIC", "result": "1 µg/mL"}
{"note": "A few entries again:"}
{"SMILES": "C[C@H]1COCCN1c1nc(-c2cnc(N)cc2C(F)F)nc(N2CCOCC2)n1", "target or system": "A 172", "quantity": "GI50", "result": "299 nM"}
